# Measurements gathered from unrelated publications.
# Each numbered part is a random draw from the data of one study; scales do not carry over between parts.

# Set 1
# Target: Sal-like protein 4, full length isoform B (SALL4, Homo sapiens, UniProt Q9UJQ4-2, residues 1-616)
# Method: universal PBM
# Molecule type: double-stranded DNA, one strand shown
# Matrix: in vitro
# Concentration: not given
# Setting: 8-mer, flanks averaged, mean of replicates
# Reading: higher = stronger binding
Strand,E-score
AGCGCACC,-0.132
GCTAGCAA,-0.00374
GAGGAAAA,0.154
AGGGGGGA,-0.124
AAGCTGCA,-0.019
ACTAAGAC,-0.0142
CCATCGAA,-0.0332
CCTAATGC,-0.0873
AGTCAGTA,0.0953
CAGAAATA,0.319
AACAGCCT,-0.227
CCGGAATA,-0.00537
AAAAAACA,0.273
CGGCTACA,-0.108
AATATTAC,0.462
AGTGGCTA,-0.0561
AAATACTA,0.28
ATGAAGAA,0.229
CCGCGTAG,-0.152
CCCCTAAA,-0.0171
CGCGATAA,0.0456
ACGAACCC,-0.232
AGTTTGCA,-0.00074
CTTATAGC,0.19
CCTGCTAA,-0.131

# Set 2
# Target: RING finger protein unkempt homolog, zinc fingers 1-6, GST-SBP tag (UNK, Homo sapiens, UniProt Q9C0B0, residues 30-357)
# Method: RNA Bind-n-Seq
# Molecule type: RNA
# Matrix: in vitro
# Concentration: not given
# Setting: RNA with constant flanks, human-mouse chimeric sites, ends assumed
# Baseline: input RNA pool
# Reading: higher = stronger binding
# Construct (chain): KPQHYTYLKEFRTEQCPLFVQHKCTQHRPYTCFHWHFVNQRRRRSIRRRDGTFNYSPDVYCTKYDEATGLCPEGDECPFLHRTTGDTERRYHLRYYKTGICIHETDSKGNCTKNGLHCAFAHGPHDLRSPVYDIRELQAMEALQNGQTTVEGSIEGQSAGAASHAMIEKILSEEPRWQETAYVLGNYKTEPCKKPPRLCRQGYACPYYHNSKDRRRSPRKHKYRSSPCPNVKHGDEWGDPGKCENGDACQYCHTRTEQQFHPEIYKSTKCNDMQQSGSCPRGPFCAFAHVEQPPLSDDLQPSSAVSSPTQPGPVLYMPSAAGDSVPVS
Strand,bound/input enrichment
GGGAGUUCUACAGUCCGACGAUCCUGGCACUCUAUCAGAUAUAUUAAUUUUUUAAUGUAGAUGUAAUUUUAAAAAUGAAUGGCUAGUUUACACGUUUAACUAGGGUUUUACUAUAUAUGUGUGUGUAUAUAUAUAUAUAUAUACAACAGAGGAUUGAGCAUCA,5.87 ratio
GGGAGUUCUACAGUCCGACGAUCGCGGCAGAAUCAUGGAGGACAUGAUGGAGCUCCCCAAAGCGCGCGUCAACGCCAGCAUGUUACCACAGUAUAUCGACCGGCCCGUGUGCUUCGUAGGGAAGCUGGAAAAGAUUCAUCCCACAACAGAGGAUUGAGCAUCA,0.26 ratio
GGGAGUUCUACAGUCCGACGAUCCUGUGUGGCUUACUAAAAUGGCUUGUAAAGAAGUUUUUCCAAGCUGUACCCAUGUACGUUAUUAUAGUUGCUGCAAAAUGUUCUUCCUGAUAUUGAUUUUAUUUGUUAACUGAAGGUCUCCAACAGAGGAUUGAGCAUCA,0.281 ratio
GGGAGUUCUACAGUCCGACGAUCGUUGCCAGGUUCCGGUGCCGUUGGGCUAGCAAGCUCCCUGAGCUACGUGUCUCUACGCUCUCAAUCCGCCAUCCAACAAACAUGGAUCAGGUAAUGCAGUUUGUGGAGCCCAGCCGGCAGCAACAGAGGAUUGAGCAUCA,0.0615 ratio
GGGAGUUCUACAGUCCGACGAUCAAAGAACCUCUCUCUGAUGAAGAUGAGGAAGACAAUGAUGAUGUUGAACCUAUUACUGAAUUUCGAUUUGUGCCCAGUGAUAAGUCAGCGUUGGAGGCGAUGUUCACAGCAAUGUGUGAGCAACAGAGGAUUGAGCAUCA,0.294 ratio
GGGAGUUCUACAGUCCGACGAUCAACAGAUUGUCUUUAAGCAUUCCAAGCGAGAAUGCUGGGGUGAUCAUUGUUGCCCAUAUAUAGUAAUACUGAGCUUUAAUGCUGUUCCAUGUUACAUCUUUCCUUCACUCCAGAAUUGUUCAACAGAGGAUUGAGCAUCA,0.644 ratio
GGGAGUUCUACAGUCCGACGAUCGUGCCCUCCUUCUCGCUGCGGAGCCCGAGCUGGGAACCAUUCCGGGACUGGUACCCUGCACACAGCCGCCUCUUCGAUCAAGCUUUCGGGGUGCCCCGGCUGCCGGAUGAGUGGUCGCAGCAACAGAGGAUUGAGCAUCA,0.0764 ratio
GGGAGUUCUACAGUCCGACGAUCUUAAACAGUUGAACUGUGGACUCUGAUGGCCUCCAUCUCUCAGGCACGUGUGCCUUCUCUUAGUCCCUGUUUUCGGGAUGUUAUGAAUCUCAGUACUGUGGUUUGAAAGCACCAGCUUUGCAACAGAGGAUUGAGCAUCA,0.197 ratio
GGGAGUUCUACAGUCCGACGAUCCUUUUUGAAUCAUUCAAGAGUUUUGAAGGUCUCUUUUAUUUUCUGGGGUCCAUUGUUAACUUUAGUCAGGACCCAGAUGUGCACUUUAAAUAUAUUCAGGCAGCUUGCAAGACUGGGCAACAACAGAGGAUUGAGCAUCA,0.683 ratio
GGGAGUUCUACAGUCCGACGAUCUACUGCUGCUUUCAACUAUCACUGAGGAGGCAUCUCUACUGUUCUGUGAGCAUCAGGACUGUAGCGCUGUGUCACCACAUGAGAGUUCAGAAGCAGCCUUUCUGUGGAGGGUGGGAAUGACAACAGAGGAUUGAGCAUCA,0.0913 ratio
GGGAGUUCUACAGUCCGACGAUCAGAUUCCCCCUCCUGAGACCUCCUCCGAAGUUGGAGUCUCUUACAGAUGCCUCAUCCCCUGUUAGUAUUUUGGUCUGGACCACCCAGCCUUGGACAAUUCCCGCCAACCAGGCAAUUUGCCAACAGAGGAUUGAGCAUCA,0.889 ratio

# Set 3
# Target: Ras GTPase-activating protein-binding protein 1, full length (G3BP1, Homo sapiens, UniProt Q13283)
# Sequence of UniProt Q13283 (whole entry, looked up): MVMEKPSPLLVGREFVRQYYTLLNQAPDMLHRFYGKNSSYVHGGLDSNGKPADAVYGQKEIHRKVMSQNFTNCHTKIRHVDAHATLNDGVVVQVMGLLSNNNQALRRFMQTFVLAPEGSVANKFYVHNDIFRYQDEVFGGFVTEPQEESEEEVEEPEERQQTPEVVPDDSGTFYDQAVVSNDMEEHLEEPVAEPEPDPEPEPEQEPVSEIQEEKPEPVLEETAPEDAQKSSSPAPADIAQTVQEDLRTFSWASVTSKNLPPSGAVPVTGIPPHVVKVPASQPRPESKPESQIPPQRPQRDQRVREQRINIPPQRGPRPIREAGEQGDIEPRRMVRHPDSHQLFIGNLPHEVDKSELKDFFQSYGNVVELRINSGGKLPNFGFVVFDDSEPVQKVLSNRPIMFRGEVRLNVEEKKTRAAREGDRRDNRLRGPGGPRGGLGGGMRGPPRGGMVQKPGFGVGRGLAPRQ
# Method: RNA Bind-n-Seq
# Molecule type: RNA
# Matrix: in vitro
# Concentration: 200 nM
# Setting: whole 134-nt RNA, ends assumed
# Added: 150 mM LiCl
# Baseline: input library
# Reading: higher = stronger binding
# Library: 7-deaza-guanosine replaces G
Strand,log2 enrichment
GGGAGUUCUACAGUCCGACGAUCUCCUGUGCUACACAUCGUAUGUACCGAAUCGGGGAGGGGUUUUUGGGGUUUUUUUGGGGAAAGUAUUAUGUUACGCCGUUCGGAUCUGCAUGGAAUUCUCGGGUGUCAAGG,0.769
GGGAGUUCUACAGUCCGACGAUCCUCAAGUCCUGUGCUACACAUCGUAUGUACCGAAUCGGAGGGGAGGGGAGGGGAAAGUAUUAUGUUACGCCGUUCGGAUCUGCACUUCCAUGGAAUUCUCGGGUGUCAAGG,0.19
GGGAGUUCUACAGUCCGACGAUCCAAGUCCUGUGCUACACAUCGUAUGUACCGAAUCGGUUUUGGGUUUUGGGUUUUGGAAAGUAUUAUGUUACGCCGUUCGGAUCUGCACUUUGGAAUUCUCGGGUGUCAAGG,-1.09
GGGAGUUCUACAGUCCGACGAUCCACAGACAACACGCACCCACACAGACACAGAGGGAAGGGGUUGGGAUGGGGACAGGGUGCACAGCAGGGCCGGGUAGGACCCCAGCCCCUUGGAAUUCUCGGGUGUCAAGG,0.329
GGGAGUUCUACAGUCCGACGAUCUGGCCCUGGUGGCAUGCGGGGAGGAAGAGGUGGCCUCAUGGAUCGUGGUGGUCCCGGUGGAAUGUUCAGAGGUGGCCGUGCUGGAGACAGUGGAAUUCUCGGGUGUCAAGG,-0.33
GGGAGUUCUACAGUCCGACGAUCCACAGACAACACGCACCCACACAGACACAGAGGGAAGGGGUUGGGAUGGGGACAGGGUGCACAGGAGGGCGGGGUAGGACCCCAGCCCCUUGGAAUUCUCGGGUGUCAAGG,-0.948
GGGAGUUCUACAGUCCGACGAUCAAGUCCUGUGCUACACAUCGUAUGUACCGAAUCGGGAAAAAAAGGGAGGGUUUGGGAAAGUAUUAUGUUACGCCGUUCGGAUCUGCACUUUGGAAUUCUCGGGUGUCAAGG,-1.35
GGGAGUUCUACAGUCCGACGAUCCUCAAGUCCUGUGCUACACAUCGUAUGUACCGAAUCGGCCGGCCGGGGCCGGGGAAAGUAUUAUGUUACGCCGUUCGGAUCUGCACUUCCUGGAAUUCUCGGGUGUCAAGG,-0.351
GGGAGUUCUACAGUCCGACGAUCCAAGUCCUGUGCUACACAUCGUAUGUACCGAAUCGGGCCCCGGCCCCGGGCCCCGGAAAGUAUUAUGUUACGCCGUUCGGAUCUGCACUUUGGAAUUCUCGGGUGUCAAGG,-1.73
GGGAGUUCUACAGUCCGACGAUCUCCUGUGCUACACAUCGUAUGUACCGAAUCGGGGUUUGGGGAAAAAAAGGGGAAAGGGGAAAGUAUUAUGUUACGCCGUUCGGAUCUGCAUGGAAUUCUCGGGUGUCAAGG,0.0522
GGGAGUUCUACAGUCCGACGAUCUUCUAUUUCUUUCCUUAAUGUUUUUUUCUUCCCUACUGUUUUAUCCUCCCUUUGCUUUGGAAGGAUAUUGCUGCAUAUCGAGCUAAAGGAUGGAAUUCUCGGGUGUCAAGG,0.794

# Set 4
# Target: RNA binding protein fox-1 homolog 2, RRM domain, GST-SBP tag (RBFOX2, Homo sapiens, UniProt O43251-10, residues 100-194)
# Method: RNA Bind-n-Seq
# Molecule type: RNA
# Matrix: in vitro
# Concentration: 365 nM
# Setting: natural RNA segment, single round, ends assumed
# Baseline: no-protein control
# Reading: higher = stronger binding
# Target sequence (chain): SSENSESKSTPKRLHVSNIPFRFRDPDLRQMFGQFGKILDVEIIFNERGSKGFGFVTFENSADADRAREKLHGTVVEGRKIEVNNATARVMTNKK
Strand,RBNS enrichment (R)
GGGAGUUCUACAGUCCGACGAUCCACACUCAAUGAACCCCACCAGAGGGGGACGAGGGGCAGGGCUGUCAGCUGCUGCUUCUGGGCCACAGGGGGGGCCCCCAGGACCUUGCACUUUAUUCCUGCCCACGUGGUGGAAUUCUCGGGUGCCAA,0.497
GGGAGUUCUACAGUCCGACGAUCGCAAUGAAAGGUACUAUAUUUGCUAGACUCUAGACAAGAUAUUGUACAUAAAAGAAUUUUUUUGUCUUUAAAUAGAUACAAAUGUCUAUCAACUUUAAUCAAGUUGUAACUGGAAUUCUCGGGUGCCAA,0.438
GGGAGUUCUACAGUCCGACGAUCAGCUCAAAAUGUAACUGUUUCUAAACUGUAUUCCAAGAGUGCCUUACCAAAGUAUAAAUUUAUUUCUUAAAAUGUGAGUAAUAGGAAUUUUAAAGAUUUAUAUAAUGCUUUGGAAUUCUCGGGUGCCAA,0.484
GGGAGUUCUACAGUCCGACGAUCUCACUGCCAGUUGGGGCCUAGGCUUAGUCCUGGGCAAAUGUCCAUGAUCUUGCUGCUGUAGGAAGCUUGAUAGGGCAUUUGGCUCAAAUUUCAGAAGGCCUCGCUCCUGAUGGAAUUCUCGGGUGCCAA,0.481
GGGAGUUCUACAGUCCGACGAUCGUAUUCUGAUUCCCCAACCCGCUCCCCUGGGCUCAGAUCUGUCCUGUCCUAGGGCGGAGCCAGGCGGUCCUGAGGGGGAGAUGAAUCCUUAGAGGAGCGCUGUCCCUAUCUGGAAUUCUCGGGUGCCAA,0.128
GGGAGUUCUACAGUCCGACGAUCCACACACAGCAGGGCACUUGUUCUGCCUCAGGCUGCAUCUACUCAGUGCCGUUAAUAAACUUUAGAUACAAACCAACAACCACCAUUCUCCAGUAUACUACAGUGGGAAUUGGAAUUCUCGGGUGCCAA,0.531
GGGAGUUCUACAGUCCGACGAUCAUUUUUGUAGUGACCUGUUUAUGAGAUGCUGGUUUUCUACCCAACGGCCCUGCAGCCAGCUCACGUCCAGGUUCAACCCACAGCUACUUGGUUUGUGUUCUUCUUCAUAUUGGAAUUCUCGGGUGCCAA,0.214
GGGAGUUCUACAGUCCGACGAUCUCUGUACAAACUUUGGGCCCGAUUCAUAAGAAAAAGAAGUUUGCUAUUAACACGGGAUUUUUUUAAUAUACUUUUUUUGGUCUAAAUUUGAAAUUACUUGCUUCCCAAAUUGGAAUUCUCGGGUGCCAA,1.06
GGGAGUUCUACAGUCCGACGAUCUGGACAAAAGGUUAUCUGCUCUUGGCCAUCUGGUGGUGGUGGCGGCCCAGAGUCUGAAGAAAUGGCACAGGGACAGUGAAUGGUAGUGUUGCCACCCUGUGCUGAGGCCUUGGAAUUCUCGGGUGCCAA,1.42

# Some of these lines once more (set 1):
Strand,E-score
AGCGCACC,-0.132
ACTAAGAC,-0.0142
CCCCTAAA,-0.0171
AGTCAGTA,0.0953
AGGGGGGA,-0.124
CCTGCTAA,-0.131
